Results from different studies.
A part holds a random share of what one study measured. Positions count from the first letter of the parent shown.

Study 1
Target: CCNA1, cyclin fold, Cln2 fusion (human)
Method: yeast growth competition, sequencing
Sample: yeast
Setting: weak parent motif
Reference: not given
Reading: higher = stronger binding
Starting sequence: PKN2 docking peptide (human); VSAVRKLDFSDTM
For `VSAVRKLDFSSTM [D11S]`, “normalised enrichment score” read 1.03.
`VSAVRKLDFWDTM [S10W]` — result for “normalised enrichment score”: 0.639.
`VSAVRKLDFMDTM [S10M]`: “normalised enrichment score” 0.279.
`VSAVRKLDYSDTM [F9Y]` — result for “normalised enrichment score”: 0.485.
`VSAVRKLDFSPTM [D11P]` — result for “normalised enrichment score”: 0.73.
`VSACRKLDFSDTM [V4C]` — result for “normalised enrichment score”: 1.61.
For `VSAVRKLDFKDTM [S10K]`, “normalised enrichment score” read 0.222.
`VSAVRKLDFSVTM [D11V]`: “normalised enrichment score” 0.679.
`VSAVRHLDFSDTM [K6H]`: “normalised enrichment score” 0.849.
`VSAVRKLDFYDTM [S10Y]`: “normalised enrichment score” 0.857.
Under “normalised enrichment score”, `VSAVRVLDFSDTM [K6V]` is recorded as 0.325.

Study 2
Target: ABI1, truncated, D143A, DHFR fusion (Arabidopsis thaliana)
Method: DHFR PCA, deep sequencing
Sample: yeast
Setting: methotrexate growth selection, single substitutions
With: (+)-ABA 0.11 µM
Reference: wild-type fitted maximum
Reading: higher = stronger binding
Starting sequence: PYL1, truncated, DHFR fusion (Arabidopsis thaliana); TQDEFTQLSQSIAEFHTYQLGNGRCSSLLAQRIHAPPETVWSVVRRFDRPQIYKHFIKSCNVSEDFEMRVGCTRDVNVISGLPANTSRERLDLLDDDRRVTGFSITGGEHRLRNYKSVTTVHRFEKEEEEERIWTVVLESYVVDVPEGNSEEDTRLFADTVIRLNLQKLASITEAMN; partner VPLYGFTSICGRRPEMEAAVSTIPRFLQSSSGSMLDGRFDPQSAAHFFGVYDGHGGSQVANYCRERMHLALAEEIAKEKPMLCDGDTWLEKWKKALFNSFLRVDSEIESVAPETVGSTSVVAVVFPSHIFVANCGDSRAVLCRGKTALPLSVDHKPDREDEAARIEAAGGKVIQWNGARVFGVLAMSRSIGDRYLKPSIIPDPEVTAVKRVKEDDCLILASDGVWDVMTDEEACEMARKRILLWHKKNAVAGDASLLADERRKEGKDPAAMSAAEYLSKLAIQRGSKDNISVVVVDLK
`T1S` — result for “relative binding score”: 32.4%.
Under “relative binding score”, `S80A` is recorded as 15.1%.
`G71L`: “relative binding score” -0.714%.
For `T73H`, “relative binding score” read 28.7%.
For `V76Q`, “relative binding score” read -7.72%.
`V100A` — result for “relative binding score”: 28.6%.
`I172Y` — result for “relative binding score”: 9.18%.
`T160H` — result for “relative binding score”: 11.4%.
`Y141Q` — result for “relative binding score”: 2.09%.
`N149I` — result for “relative binding score”: 38.4%.
`S150P` — result for “relative binding score”: 10.6%.
`N22H`: “relative binding score” 40.9%.
For `T154Q`, “relative binding score” read 0.373%.
`I79P`: “relative binding score” -2.98%.

Study 3
Target: Sal-like protein 4, full length isoform B (SALL4, Homo sapiens, UniProt Q9UJQ4-2, residues 1-616)
Method: universal PBM
Molecule type: double-stranded DNA, one strand shown
Sample: in vitro
Tested at: not given
Setting: 8-mer, flanks averaged, mean of replicates
Reading: higher = stronger binding
For `CTACCGCA`, the E-score was -0.0138.
For `CCTACACG`, the E-score was -0.126.
The E-score of `AGATGGAT` is reported as -0.0692.
The E-score of `AATGGAGA` is reported as 0.0408.
For `AGCCCCCA`, the E-score was -0.252.
`TGCAACAA` gave an E-score of 0.202.
`AATTCTTG` has an E-score of 0.197.
The E-score of `CGCGCGAC` is reported as -0.285.
`CCCTGGAC` gave an E-score of -0.297.
`CGATCGCA` gave an E-score of 0.013.
For `GTTCAGTA`, the E-score was 0.106.
`CCCAAAGG` gave an E-score of -0.198.
`CGATCTAA` gave an E-score of 0.0579.
The E-score of `AAGCCGGT` is reported as -0.137.
`ACTACACA` gave an E-score of 0.245.
`CCCACACG` gave an E-score of -0.105.
The E-score of `CTGTTCAA` is reported as 0.0157.
`GTAGGCCA` has an E-score of -0.137.

Study 4
Target: RING finger protein unkempt homolog, zinc fingers 1-6, GST-SBP tag (UNK, Homo sapiens, UniProt Q9C0B0, residues 30-357)
Chain of UniProt Q9C0B0 (30-357, looked up): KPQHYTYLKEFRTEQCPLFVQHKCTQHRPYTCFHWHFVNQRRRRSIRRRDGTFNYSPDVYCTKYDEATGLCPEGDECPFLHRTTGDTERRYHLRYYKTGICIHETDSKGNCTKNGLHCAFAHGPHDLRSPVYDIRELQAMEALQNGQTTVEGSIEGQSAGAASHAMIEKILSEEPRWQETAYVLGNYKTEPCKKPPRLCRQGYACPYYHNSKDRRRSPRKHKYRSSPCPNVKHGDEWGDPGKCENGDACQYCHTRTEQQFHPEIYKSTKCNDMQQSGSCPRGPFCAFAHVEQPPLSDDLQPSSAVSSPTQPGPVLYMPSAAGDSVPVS
Method: RNA Bind-n-Seq
Molecule type: RNA
Sample: in vitro
Tested at: not given
Setting: RNA with constant flanks, human-mouse chimeric sites, ends assumed
Reference: input RNA pool
Reading: higher = stronger binding
With `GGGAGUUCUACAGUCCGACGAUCCUGUGACCACAAGAUCCUACCUGAGUGGCAGCUGAAGUUGACUCCCUCCCCUUCCCUGAACCCCCCCCCACUGCCCCCCCAUCCCCCAGUGUCGGCUAUUCUCUGGUCUCUGCACGGUUCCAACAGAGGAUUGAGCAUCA` the bound/input enrichment was 1.32 ratio.
For `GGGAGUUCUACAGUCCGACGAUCUUGAAAACUGAUUCAAGUAAGUUUGAGUAUCACAAUGUUAGCUUUCUAAUUCCAUAAAAGUACUUGGUACAGUUUCUUUAUAAUCUGACAUCACCCCAGCGCCAUUUGUAAAGAGCAACUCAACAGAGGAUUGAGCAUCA`, the bound/input enrichment was 0.793 ratio.
With `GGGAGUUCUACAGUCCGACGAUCCUUAAUGUUAAUAUUUUUGAAUAAAUGAAGCUAAAAUUUUGCUUUCUGGUACAACACGCAUUAAUAAAAGGUUAAGUUUUGUUUUCCACUGAAGUACGUAAUACUUACUCAGAAAAAAACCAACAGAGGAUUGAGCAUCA` the bound/input enrichment was 0.567 ratio.
`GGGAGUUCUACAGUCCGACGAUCUUUGUUUGUAACUUAUCUCUGUAAAAGUCCCCCCCCCUACUGUCAAAAAAUAUGCAUGUAUAGUAAUUAGGACUUCAUUCCUCCAUGUUUUCUUCCCUUAUCUUACUGUCAUUGUCCUUACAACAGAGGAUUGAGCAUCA` gave a bound/input enrichment of 2.65 ratio.
With `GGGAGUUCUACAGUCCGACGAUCCACUCGAGGGCUGCCGUUUUCUGUUUCUCCCUGGGCUGCGGAAAGCCAGAAGAUUUUAUCUAGUUUGUACAAGGCUGCUGGUGUUCCCUCUUUUUUUCCACGAGGGUGUUUUUGGCUGCACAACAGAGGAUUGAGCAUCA` the bound/input enrichment was 0.598 ratio.
For `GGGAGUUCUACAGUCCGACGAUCACCAUUUUCGCGGUUCAGGCUUUGUGUGUAGUUCACUCUAUGUAUUAAAUUAUUAUUCUGCUUAGCUUAUAAUAAGGAUAAUUGCAUUUAAAGAGGUGAUCACUGAAUACUCUGAAACUUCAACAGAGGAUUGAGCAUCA`, the bound/input enrichment was 0.442 ratio.
`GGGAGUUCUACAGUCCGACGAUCCUGUGACCACAAGAUCCUACCUGAGUGGCAGCUGAAGUUGACUCCCUCUCCUUGCCUGCCUAGUUUCCCACUGCCCCCCCAUCCCCCAGUGUCGGCUAUUCUCUGGUCUCUGCACGGUUCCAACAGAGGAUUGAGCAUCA` gave a bound/input enrichment of 0.913 ratio.
With `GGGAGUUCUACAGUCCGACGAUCCAGCGCCGAGGCCGCGGGUGCCCGCCGGGCCUCCCCAGCAGCAGCCAUGGGCAUCAAAUUUUUAGAAGUUAUCAAACCUUUCUGUGCAGUUCUACCAGAAAUUCAGAAACCGGAAAGGAACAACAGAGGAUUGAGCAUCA` the bound/input enrichment was 1.59 ratio.

Study 5
Target: NFIL3, bZIP domain (human)
Method: DHFR protein complementation
Sample: yeast
Setting: single substitutions, most at no-binding floor
Reference: wild-type JUN-FOS pair
Reading: higher = stronger binding
Starting sequence: JUN, bZIP domain (human); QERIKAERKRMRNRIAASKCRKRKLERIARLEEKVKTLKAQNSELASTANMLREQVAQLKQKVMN; partner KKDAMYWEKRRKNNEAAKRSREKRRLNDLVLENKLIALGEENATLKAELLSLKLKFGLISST
For `T37L`, the binding fitness was -1.34 natural log.
`L52I` gave a binding fitness of -1.37 natural log.
`N42I` has a binding fitness of -1.53 natural log.
`T48L` has a binding fitness of -1.43 natural log.
For `E44D`, the binding fitness was -1.59 natural log.
`K36G` gave a binding fitness of -1.44 natural log.
`Q55L` has a binding fitness of -1.54 natural log.
For `Q55T`, the binding fitness was -1.52 natural log.
`S47F` has a binding fitness of -1.41 natural log.
`T37G` gave a binding fitness of -1.39 natural log.
`A46G` has a binding fitness of -1.47 natural log.
`A40C` gave a binding fitness of -1.3 natural log.
With `I28V` the binding fitness was -1.52 natural log.
For `L38S`, the binding fitness was -1.48 natural log.

Single results of other studies
`PhoQ, residues 284 288 289 292 302 303 ALAMYF` has a fold induction of 1.94 (PhoP, residues 12 14 15 18 19 NMSFL (Escherichia coli, UniProt P23836); Sort-seq, measured: YFP reporter; E. coli; PhoQ-PhoP variant library, with: 10 µM Mg2+; reference: high Mg2+ state, higher = stronger signaling).

Excerpt of the above (study 1):
`VSAVRKLDYSDTM [F9Y]` — result for “normalised enrichment score”: 0.485.
`VSAVRHLDFSDTM [K6H]`: “normalised enrichment score” 0.849.
`VSAVRKLDFYDTM [S10Y]`: “normalised enrichment score” 0.857.
`VSAVRKLDFSPTM [D11P]` — result for “normalised enrichment score”: 0.73.
For `VSAVRKLDFKDTM [S10K]`, “normalised enrichment score” read 0.222.
`VSACRKLDFSDTM [V4C]` — result for “normalised enrichment score”: 1.61.
